# Results pooled from the literature.
# A part holds a random share of what one study measured.

# Sample 1 — technique: RNA Bind-n-Seq; molecule type: RNA; matrix: in vitro; concentration: 200 nM; notes: whole 134-nt RNA, ends assumed; added: 150 mM KCl; reference: input library; direction: higher = stronger binding
# Target: Fragile X messenger ribonucleoprotein 1, C-terminal low-complexity region (Fmr1, Mus musculus, UniProt P35922)
# Constant ends, left off below: GGGAGUUCUACAGUCCGACGAUC … UGGAAUUCUCGGGUGUCAAGG
Sequence,log2 enrichment
GCAGGAAGUAAAAACAAAUGGAAAUGCUUCGGAUAGUGGCAGGGGUGGGGAUUGCUAAGGAAAGGGUGGGAUGGGAGUGGGUAAAGAGUU,0.271
UAACUUUAGAGGAGGAUCUGAUGGAUAUGGCAGUGGACGUGGAUUUGGGGAUGGCUAUAAUGGGUAUGGAGGCGGACCUGGAGGUGGCAA,0.191
AGUCCUGUGCUACACAUCGUAUGUACCGAAUCGGGGAAAAGGGGAAAAGGAAAAGGGGAAAGUAUUAUGUUACGCCGUUCGGAUCUGCAC,0.274
UGGCCCUGGUGGCAUGCGGGGAGGAAGAGGUGGCCUCAUUGAUCGUGGUGGUCCCGGUGGAAUGUUCAGAGGUGGCCGUGGUGGAGACAG,0.0725
GCAGGAAGUAAAAACAAAUGGAAAUGCUUCGGAUAGUGUCAGGGGUGGGGGUUGCUAAGGAAAGGGUGGGAUGGGAGUGGGUAAAGAGUU,0.622
CAAGUCCUGUGCUACACAUCGUAUGUACCGAAUCGGUUUGGGGUUUGGGUUUGGGAAAGUAUUAUGUUACGCCGUUCGGAUCUGCACUUC,0.0926
UGGGAGGUGGAUUUUGUUUAUUUUUUUAGCUCAUUUCCCGGGGUGGGAAUUUUUUUUUAAUAUGUGUCAUGAAUAAAGUUGUUUUUGAAA,0.024
CGGUCAGACUUUGUGUUACAUAAAUUAACACUGUUCUCAGGUAAUGAGAGAUCCAAACACCAAGCGCUCCAGGGGCUUUGGGUUUGUCAC,-0.644
GCAGGAAGUAAAAACAAAUGGAAAUGCUUCGGAUAGUGGCAGGGGUGGGGGUUGCUAAGGAAAGAGUGGGAUGGGAGUGGGUAAAGAGUU,0.227
UAACUUUAGAGGAGGAUCUGAUGGAUAUGGCAGUGGACGUUGAUUUGGGGAUGGCUAUAAUGGGUAUGGAGGAGGACCUGGAGGUGGCAA,0.237
UGCUUCAGACCAAGCGGAGCUCCCGGAGGCAAAGCCUGGAGCUGCAGAAGUGUGAAGAGAUCCUCCACAAGAUCGUGAAGUACCGCUUCA,-2.41
UGGGAGGUGGAUUUUGUUCAUUUUUUUAGCUCAUUUCCAGGGGUGGGAAUUUUUUUUUAAUAUGUGUCAUGAAUAAAGUUGUUUUUGAAA,0.212
AGUCCUGUGCUACACAUCGUAUGUACCGAAUCGGAAAAAGGAAAAAAAGGUUUUUGGAAAGUAUUAUGUUACGCCGUUCGGAUCUGCACU,-1.42
CAUCAAAAUAGCUACAAACCAUACUAAAUUAUUCCAUUUGCAACUUAUCCCCAACAGGUAUGUUCUAAAAAUAGUUUUUUUUUGUCAUUU,0.246

# Sample 2 — technique: protein binding microarray; molecule type: double-stranded DNA, one strand shown; matrix: in vitro; concentration: not given; reference: not given; direction: higher = stronger binding
# Target: Histone acetyltransferase KAT6A, both winged helices, GST fusion (KAT6A, Homo sapiens, UniProt Q92794, residues 1-181)
# Notes: 8-mer, flanks averaged, mean of 2 arrays, mostly near background
# Residues (chain): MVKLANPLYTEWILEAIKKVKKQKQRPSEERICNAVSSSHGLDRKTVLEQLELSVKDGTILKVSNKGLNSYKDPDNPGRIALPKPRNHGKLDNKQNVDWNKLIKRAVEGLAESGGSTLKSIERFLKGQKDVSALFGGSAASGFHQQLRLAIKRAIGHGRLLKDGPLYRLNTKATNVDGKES
Sequence,E-score
GTTCCAAA,-0.195
ATCTGCTA,-0.298
AACCTTCT,-0.154
AAATTACG,-0.0591
AAGTGCAA,-0.182
GATACTAA,0.0533
TAAGAGCA,-0.207
CGGCACGC,0.301
GGATCAAC,0.057
AAAGAATC,-0.0691
TATCAGCA,-0.126
CGGATGGC,0.0917
TAACCGCA,0.205
AAGCCGTG,0.251
CCGGCTCC,0.0926
ACATAAGA,-0.0576
ACAACCAA,-0.156
CCCTCAGG,-0.13
CACCATGC,-0.0921
GACTATTA,-0.0995
AGTCCAAC,-0.189
TCCATCAA,-0.155
AACTGCGG,0.195
GTGCCACA,-0.155

# Sample 3 — technique: RNA Bind-n-Seq; molecule type: RNA; matrix: in vitro; concentration: not given; reference: input RNA pool; direction: higher = stronger binding
# Target: RING finger protein unkempt homolog, zinc fingers 1-6, GST-SBP tag (UNK, Homo sapiens, UniProt Q9C0B0, residues 30-357)
# Chain of UniProt Q9C0B0 (30-357, looked up): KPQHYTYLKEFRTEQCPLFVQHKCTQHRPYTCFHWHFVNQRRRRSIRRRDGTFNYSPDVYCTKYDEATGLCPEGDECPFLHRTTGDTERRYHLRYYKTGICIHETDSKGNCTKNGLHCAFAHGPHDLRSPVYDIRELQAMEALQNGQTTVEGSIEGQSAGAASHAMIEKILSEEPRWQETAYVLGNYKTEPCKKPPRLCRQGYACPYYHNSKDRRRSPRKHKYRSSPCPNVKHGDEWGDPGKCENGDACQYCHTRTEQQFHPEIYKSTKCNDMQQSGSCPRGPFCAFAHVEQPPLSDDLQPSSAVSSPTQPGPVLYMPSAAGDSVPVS
# Notes: RNA with constant flanks, human and mouse sites, ends assumed
# Constant ends, left off below: GGGAGUUCUACAGUCCGACGAUC … CAACAGAGGAUUGAGCAUCA
Sequence,bound/input enrichment
CCUUUAUUUUAUUUUUCAGUACAAAUUUAUAGACAUACCCAAAUUGUACUGCUGUAGUUUUUCAAACUAAGUGAAAAAUUACUUCUACCUAGAAAUGAGUAUAUUCUUCUACUUUGGAUC,10.7 ratio
AAAGAACUGAUAGGAAAAAAAAUCCUCUGUCACUUUUUUUUUUAAAAAAAGAAAACCUUGUUUAGAUACAAAGUCUUGUAUAAAUUAUAAUUUUUAUUUAAUAAACCUAAAAUGCUCUGU,77.5 ratio
GUCUGCAAAAUGGCCCAGACGAGUCUGCUGCAAGGGAAACAGUUUUACUGUCGAGAAUGGGUUUUCCACAAACUUCAGCACUGCCUCCAGGAGAAAUGGAGCUGCUGUUCGGGUCCAGCC,0.167 ratio
AUGGGCUUUCAUGUAAUCUAUAAGACACCCUGUGGUCUCUGCCUUCGGACGAUGCAGGAGAUAGAGCGCUACCUUUUUGAGACUGGCUGUGACUUUCUGUUCCUGGAGAUGUUCUGUUUG,0.195 ratio
GAGAACAGCAACAUACAGGUCCUUUCUGAAAGAUCUGCUACUGAAGUAGACAACAAUUUUAGCAAACCACCUCCGUUUUUCCCUCCAGGAGCUCCUCCCACUCACCUUCCACCUCCUCCA,0.858 ratio
CUUCAGCUGGUGUUGGUCUGGCUGGGAGAGGUGCUGGGUGUCAUUGGGGACUCCCCAGAGCUAGUUCAGCGGUCCUUCCUUGUGGCUAGUGUUCUGCCAGGUCCCGAUGGCAACGUUAAC,0.161 ratio
UUGCUUUACUGGAAAGAACCAGAAUAUGCCAAAUAUCUAAAGUACCCUCAGUGCUUACAUAUGUUAGAGCUGCUCCAGUAUGAGCACUUUCGCAAGGAGCUGGUGAAUGCGCAGUGUGCG,0.155 ratio
AUACAUUCUAAGGGAGCACAUGGUGAAGGUAAUUCAGUGUCAUUGGAUUUUCAGAAUUCCUUAGUGUCCAAACCAGACCCACCUCCAUCUCAGAAUAAGCCAGCAACUUUCAGACCACCA,0.474 ratio
AAGUUUGAGAAUAUUCAUACUAAUAAUAAACCCGGCUUACUUGGAGAGCCCCCAGCUGUGGUACUUCAGACUGCACUAGGGAUAGGGUCAGUGCUUCCAUUGAAAAAGGAGUUGGGACAU,0.559 ratio
UUCAUGUUCAUUAAUGAUUUGGAACAAUGCCAGUGGAUCCGACAGAAGUUUGAGACCCCUGGAAUCAUGCAGUUCACCAAUGAGGAGAAGCGGACCUUGCUGGCCAGGCUUGUACGAUCC,0.138 ratio
GUUCAGCUCCACCAGAUGGCUGUGAUAGGGCAGCAGGCCGGGAGCAGCAGCAACCUCACCGAGCUACAGGUGGUGAACCUGGACACCGCCCACAGCACCAAGAGUGAAUGAUCCGCCCGC,0.184 ratio

# Sample 4 — technique: protein-binding microarray; molecule type: double-stranded DNA, one strand shown; matrix: in vitro; concentration: 250 nM; notes: 60-bp whole probe; added: salmon DNA 0.4 mg/ml; reference: random background probes; direction: higher = stronger binding; constant ends, left off below: GCCTAGCAC … GTCTTGATTCGCTTGACGCTGCTG
# Target: Interferon regulatory factor 7, full length, phosphomimetic (IRF7, Homo sapiens, UniProt Q92985, residues 1-503, S101K/S471D/S472D/S475D/S476D/S477D/S483D/S484D/S487D)
# Chain of UniProt Q92985 (whole entry, unmodified, looked up): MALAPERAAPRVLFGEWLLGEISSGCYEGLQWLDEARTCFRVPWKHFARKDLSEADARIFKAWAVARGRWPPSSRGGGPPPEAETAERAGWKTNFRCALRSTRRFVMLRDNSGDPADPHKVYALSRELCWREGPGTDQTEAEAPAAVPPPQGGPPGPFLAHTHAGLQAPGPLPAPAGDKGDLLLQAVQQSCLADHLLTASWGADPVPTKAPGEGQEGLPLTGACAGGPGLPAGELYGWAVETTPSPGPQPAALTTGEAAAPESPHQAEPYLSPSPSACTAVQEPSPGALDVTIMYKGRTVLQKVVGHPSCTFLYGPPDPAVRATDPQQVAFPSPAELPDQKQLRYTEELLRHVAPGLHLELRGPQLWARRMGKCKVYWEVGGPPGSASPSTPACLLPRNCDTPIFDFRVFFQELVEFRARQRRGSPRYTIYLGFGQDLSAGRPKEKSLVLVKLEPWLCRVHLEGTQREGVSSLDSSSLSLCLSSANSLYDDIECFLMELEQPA
Sequence,log fluorescence
GACGAACTGAGACCGGAGACGTGCTAG,-0.0816 z-score
TTAGGTATCGACACTCGGTTAGTGCTA,0.212 z-score
GTCACATTGCACAATCTTAATGTGCTA,0.504 z-score
GACGGTATCGGGTTTCCGGACGTGCTA,2.05 z-score
TGTTATTAAAATTTCATGAAGTGCTAG,0.802 z-score
TGCTCCTTATGGCTAAAGGGGTGCTAG,0.0571 z-score
GACGGACTGGACACTTGGGACGTGCTA,-0.604 z-score
TTAGGTTTCGGTCTGGGTTAGTGCTAG,7.83 z-score
TACGAACTGGGGTATCGAGACGTGCTA,-0.075 z-score
TTAGGAGTGGGGTTTCGGTTAGTGCTA,4.75 z-score
GACGGACTGGGCCTCGGGACGTGCTAG,-0.529 z-score
GACGGCATCGGTATCGGGACGTGCTAG,-0.242 z-score
TTAGGTCTCCATTTCCTTTAGTGCTAG,2.19 z-score
TTAGGTTTCGGAGTGGGTTAGTGCTAG,2.7 z-score
TTAGGTTTCGTTATCCTTTAGTGCTAG,12.4 z-score
GACGGTATCGACACCGGGGACGTGCTA,-0.25 z-score
TTCAGTTTCTCTTTCCTTCTGTGCTAG,6.19 z-score
TAAGCAAAAATGATTGGTTGGTGCTAG,-0.102 z-score
TCACTTCACCTCTCTGTCACTGTGCTA,0.477 z-score
TTAGAACTGGCGACTGGATTAGTGCTA,-0.495 z-score
TTAGAACTGGCGTTTCGATTAGTGCTA,4.32 z-score
TTAGAACTGGGGACTGCATTAGTGCTA,-0.371 z-score
CAGTTTTCCTCTGTCATTTTGTGCTAG,2.61 z-score
GACGATATCAGTTTCGTGACGTGCTAG,2.06 z-score
AACGATCTCAGTTTCGAGACGTGCTAG,3.93 z-score
